Results collected from several papers.
Numbers after ± are the reported error. Values after ≈ are worked out from the molar mass of the structure shown.

N=C(N)NCCC[C@@H]1NC(=O)[C@H](CCCCNC(=O)CC[C@H](NC(=O)CCOCCOCCOCCOCCNC(=O)CC[C@H](NC(=O)CN2CCN(CC(=O)O)CCN(CC(=O)O)CCN(CC(=O)O)CC2)C(=O)NCCOCCOCCOCCOCCC(=O)N[C@@H](CCC(=O)NCCCC[C@@H]2NC(=O)[C@@H](Cc3ccccc3)NC(=O)[C@H](CC(=O)O)NC(=O)CNC(=O)[C@H](CCCNC(=N)N)NC2=O)C(=O)NCCCC[C@@H]2NC(=O)[C@@H](Cc3ccccc3)NC(=O)[C@H](CC(=O)O)NC(=O)CNC(=O)[C@H](CCCNC(=N)N)NC2=O)C(=O)NCCCC[C@@H]2NC(=O)[C@@H](Cc3ccccc3)NC(=O)[C@H](CC(=O)O)NC(=O)CNC(=O)[C@H](CCCNC(=N)N)NC2=O)NC(=O)[C@@H](Cc2ccccc2)NC(=O)[C@H](CC(=O)O)NC(=O)CNC1=O [indium-111 labelled]  tumour to tissue ratio (athymic nude mice, female, U-87 MG glioma xenograft, tumour and kidney; intravenous, 24 h; relative to: tumour over kidney): 1.46 ± 0.8
O=C1C(Cl)=C(Cl)C(=O)c2ccccc21  viability (CRFK; cell growth or viability; 25 µM, 72 h): 80%
O=C(O)CCC(NP(=O)(O)OCCC[C@@H](NC(=O)CCC(NC(=O)CCCCCNC(=O)CCCCCNC(=O)c1ccc([18F])cc1)C(=O)O)C(=O)O)C(=O)O (stereo partly shown)  tracer uptake (PC-3 tumour model; host not given, liver; intravenous, 2 h, tumour-bearing): 0.25 %ID/g
N=C(N)NCCC[C@@H]1NC(=O)[C@H](CCCCNC(=O)CNC(=O)CNC(=O)CNC(=O)CC[C@H](NC(=O)CCOCCOCCOCCOCCNC(=O)CC[C@H](NC(=O)CN2CCN(CC(=O)O)CCN(CC(=O)O)CCN(CC(=O)O)CC2)C(=O)NCCOCCOCCOCCOCCC(=O)N[C@@H](CCC(=O)NCC(=O)NCC(=O)NCC(=O)NCCCC[C@@H]2NC(=O)[C@@H](Cc3ccccc3)NC(=O)[C@H](CC(=O)O)NC(=O)CNC(=O)[C@H](CCCNC(=N)N)NC2=O)C(=O)NCC(=O)NCC(=O)NCC(=O)NCCCC[C@@H]2NC(=O)[C@@H](Cc3ccccc3)NC(=O)[C@H](CC(=O)O)NC(=O)CNC(=O)[C@H](CCCNC(=N)N)NC2=O)C(=O)NCC(=O)NCC(=O)NCC(=O)NCCCC[C@@H]2NC(=O)[C@@H](Cc3ccccc3)NC(=O)[C@H](CC(=O)O)NC(=O)CNC(=O)[C@H](CCCNC(=N)N)NC2=O)NC(=O)[C@@H](Cc2ccccc2)NC(=O)[C@H](CC(=O)O)NC(=O)CNC1=O [indium-111 labelled]  tumour to bone ratio (female athymic nude mouse; intravenous, 24 h, U-87 MG glioma xenograft; relative to: tumour over bone): 7.02 ± 1.39
O=C(O)CCC(NP(=O)(O)OCCC[C@@H](NC(=O)CCC(NC(=O)c1ccc([18F])cc1)C(=O)O)C(=O)O)C(=O)O (stereo partly shown)  tracer uptake (PC-3 tumour model; host not given, blood; intravenous, 2 h, tumour-bearing): 0.08 %ID/g
CC(CCC(=O)NCC(=O)O)C1CCC2C3C(O)CC4CC(OC5OC(C(=O)O)C(O)C(O)C5O)CCC4(C)C3CCC12C (stereo not shown)  uptake ratio (Solute carrier organic anion transporter family member 1B1 (SLCO1B1, Homo sapiens, UniProt Q9Y6L6, N130D/P155T); substrate; HEK293 expressing OATP1B1 variant; 1 µM, 2 min; relative to: wild-type HEK293 cells): 157 ± 6.4
CC[C@H](C)[C@H](NC(=O)[C@H](CCCCN)NC(=O)[C@H](CCCCN)NC(=O)[C@H](C)NC(=O)[C@@H](NC(=O)[C@H](C)NC(=O)[C@H](CC(C)C)NC(=O)[C@H](CC(C)C)NC(=O)[C@H](C)NC(=O)[C@H](CCCCN)NC(=O)[C@H](CC(C)C)NC(=O)[C@H](CC(N)=O)NC(=O)[C@@H](N)CC(C)C)C(C)C)C(=O)N[C@@H](CC(C)C)C(N)=O  α-helix content (circular dichroism; 10 mM ammonium acetate; 100 µM, 20 °C): 7%
C[C@@](O)(C(F)F)[C@H](NC(=O)c1ccc(C#CC#CC2CC2)cc1)C(=O)NO  CL/F (mouse, plasma; intraperitoneal, 40 mg/kg): 27.9 mL/min/kg
CN[C@](C)(C[18F])C(=O)O  tracer uptake (SK-OV-3 tumour model; host not given, blood; 2 h, tumour-bearing): 0.8 %ID/g
O=C(O)CCC(NP(=O)(O)OCCC[C@@H](NC(=O)CCC(NC(=O)CCCCCNC(=O)c1ccc([18F])cc1)C(=O)O)C(=O)O)C(=O)O (stereo partly shown)  tracer uptake (PC-3 tumour model; host not given, bone; intravenous, 2 h, tumour-bearing): 0.17 %ID/g
CCCC[C@H](NC(=O)CNC(=O)CNC(=O)c1ccc(NN)nc1)C(=O)N[C@H]1CC(=O)NCCCC[C@@H](C(N)=O)NC(=O)[C@H](Cc2c[nH]c3ccccc23)NC(=O)[C@H](CCCNC(=N)N)NC(=O)[C@@H](Cc2ccccc2)NC(=O)[C@H](Cc2c[nH]cn2)NC1=O [technetium-99m labelled]  uptake (C57 mouse, B16/F1 melanoma, kidneys; 2 h, added: L-lysine 12 mg): 4.37 ± 0.36 %ID/g
CC[C@H](C)C(=O)N1CCC(NC(=O)Nc2ccc(OC(F)(F)F)c(F)c2)CC1  Cmax (human, plasma; oral, 24 mg, single dose, healthy volunteers): 301 ng/mL
CN(C)CC1CCCCC1(O)c1cccc(O)c1 (stereo not shown)  Papp B to A (P-glycoprotein; Caco-2 TC7; 10 µM, 3 h, pH 7.4, added: cyclosporin A 10 µM): 15 ± 0.3 ×10⁻⁶ cm/s
COc1cc(C(=O)NCCOCCOCCOCCNC(=O)c2ccc([18F])nc2)ccc1NC(=O)C1NC(CC(C)(C)C)C(C#N)(c2ccc(Cl)cc2F)C1c1cccc(Cl)c1F (stereo not shown)  tracer uptake (HepG2 tumour model; host not given, bone; 30 min, tumour-bearing): 1.58 %ID/g
CCC(=O)N(C)c1ccc(Cl)c(Cl)c1  revertants (Salmonella typhimurium; Ames test; TA1537; 0.50 mg/plate, with rat liver S9): 2 ± 3.2 revertants/plate
N[C@]1(c2ccccc2Cl)CCC[C@H](O)C1=O  AUC(0-t) (Wistar rat, plasma; oral, 20 mg/kg): 10100 ± 1310 ng·h/mL
CCN(Cc1ccccc1)C(=O)CCc1nc(CN2CCN(C(=O)Cc3ccc(OC)c(OC)c3)CC2)no1  activation V1/2 (Potassium voltage-gated channel subfamily KQT member 5 (KCNQ5, Homo sapiens, UniProt Q9NR82); potassium current, whole-cell patch clamp; transfected cells; 3 µM): -54.3 ± 1.3 mV
CCCCCCCCC(=O)NCc1ccc(O)c(OC)c1  IC50 (mAb 5-D8; antibody binding, indirect competitive ELISA; added: coating antigen hapten 5-OVA): 9.81 ng/mL (≈ 0.0334 µM)
COc1ccc(CNc2nc(N3CCC[C@H]3CO)ncc2C(=O)NNC(=O)c2cnc(N3CCC[C@H]3CO)nc2NCc2ccc(OC)c(Cl)c2)cc1Cl  revertant count (Salmonella typhimurium; TA97a; 1000 µg/plate, 48 h, added: rat liver S9): 38 ± 7

A few entries again:
CC[C@H](C)[C@H](NC(=O)[C@H](CCCCN)NC(=O)[C@H](CCCCN)NC(=O)[C@H](C)NC(=O)[C@@H](NC(=O)[C@H](C)NC(=O)[C@H](CC(C)C)NC(=O)[C@H](CC(C)C)NC(=O)[C@H](C)NC(=O)[C@H](CCCCN)NC(=O)[C@H](CC(C)C)NC(=O)[C@H](CC(N)=O)NC(=O)[C@@H](N)CC(C)C)C(C)C)C(=O)N[C@@H](CC(C)C)C(N)=O  α-helix content (circular dichroism; 10 mM ammonium acetate; 100 µM, 20 °C): 7%
O=C(O)CCC(NP(=O)(O)OCCC[C@@H](NC(=O)CCC(NC(=O)CCCCCNC(=O)CCCCCNC(=O)c1ccc([18F])cc1)C(=O)O)C(=O)O)C(=O)O (stereo partly shown)  tracer uptake (PC-3 tumour model; host not given, liver; intravenous, 2 h, tumour-bearing): 0.25 %ID/g
COc1ccc(CNc2nc(N3CCC[C@H]3CO)ncc2C(=O)NNC(=O)c2cnc(N3CCC[C@H]3CO)nc2NCc2ccc(OC)c(Cl)c2)cc1Cl  revertant count (Salmonella typhimurium; TA97a; 1000 µg/plate, 48 h, added: rat liver S9): 38 ± 7
